Published values pooled from the literature.
“And” joins repeats or separate records; there may be more than shown. ± gives the spread as reported.

| SMILES | cell line | assay | conditions | how to read | measurement | value |
| --- | --- | --- | --- | --- | --- | --- |
| Cc1ccccc1NC(=O)Nc1ccc(CC(=O)N[C@@H](CCCCNC(=O)/C=C/c2cccnc2)C(=O)N[C@@H](CCCC(=O)O)C(=O)NC2(C(=O)NCCOCCOCCOCCOCC(=O)N[C@@H](CCCCNC(=S)Nc3ccc(CCCN(CCN4CCN(CP(=O)(O)O)CCN(CP(=O)(O)O)CC4)CC(=O)O)cc3)C(N)=O)CCCCC2)cc1 [gallium-68 labelled] | B16-F10 cells |  | 2 h efflux |  | cellular retention | 61.8 ± 4.3% |
| O=C([O-])CN1CCN(CC(=O)[O-])CCN(CC(=O)NCC2CCC(C(=O)N[C@@H](Cc3ccc4ccccc4c3)C(=O)NCCCC[C@H](NC(=O)N[C@@H](CCC(=O)O)C(=O)O)C(=O)O)CC2)CCN(CC(=O)[O-])CC1.[177Lu+3] (stereo partly shown) | 22Rv1 |  | 24 h | reference: added dose | uptake | 4.78 ± 0.35% |
| Nc1ncnc2c1ncn2[C@@H]1O[C@@H]2COP(=O)(O)O[C@H]3[C@@H](O)[C@H](n4cnc5c(=O)[nH]cnc54)O[C@@H]3COP(=O)(O)O[C@H]2[C@H]1O | HFF-1 | RNA sequencing, item: Reactome Adaptive Immune System | upregulated pathways | reference: mock | fold enrichment | 2.29 |
| COc1ncccc1-c1cnn2ccc(N3CCN(C(=O)OC(C)C)CC3)nc12 | hTERT-RPE1 | item: AP-2 µ2 Thr156 phosphorylation | 10 µM, 2 h |  | inhibition | ~60% |
| CCN(CC)c1ccc(C=NNC(=O)CSc2nc3ccccc3c(=O)n2Cc2ccc(S(N)(=O)=O)cc2)c(O)c1 | SF-268 | NCI five-dose screen |  |  | CC50 | > 100000 nM |
| C/C=C(/C)C(=O)O[C@H]1C(C)=C2[C@H]([C@@H]1OC(=O)CCCCCCC)[C@@](C)(OC(C)=O)C[C@H](OC(=O)CCC)[C@@]1(O)[C@H]2OC(=O)[C@@]1(C)O | HEK-293T | RNA-seq GSEA, item: Hallmark complement | 500 nM, 6 h | direction not given | normalized enrichment score | 1.15 |
| Nc1ncc(-c2nc(N3CCOCC3)nc(N3CCOCC3)n2)c(C(F)F)n1 | SW480 |  | 72 h |  | GI50 | 472 nM |
| C/C=C(/C)C(=O)O[C@H]1C(C)=C2C([C@@H]1OC(=O)CCCCCCC)[C@@](C)(OC(C)=O)C[C@H](OC(=O)CCC)[C@@]1(O)[C@H]2OC(=O)[C@@]1(C)O (stereo partly shown) | LDR | silenced CMV-GFP reporter derepression, qHTS |  |  | efficacy | 32% |
| Oc1cc(Cl)ccc1Oc1ccc(Cl)cc1Cl | MYBPC3 iPSC cardiomyocytes | plate-normalised | concentration not given, 24 h, hit retest |  | MyBP-C level | 1.1% |
| CNC(=O)Oc1cc(C)c(SC)c(C)c1 | SH-SY5Y | neurite outgrowth | nominal concentration | reference: IC10 over EC10 | specificity ratio | 8.83 |
| C[C@]12CC[C@H](O)C[C@H]1CC[C@@H]1[C@@H]2CC[C@]2(C)[C@@H](C3=CC(=O)OC3)[C@@H](O)C[C@]12O | MYBPC3 iPSC cardiomyocytes | plate-normalised | concentration not given, 24 h, hit retest |  | MyBP-C level | 25.6% |
| O=c1cc(-c2ccccc2)oc2c(O)c(O)ccc12 | SH-SY5Y Aβ-GFP cells, TRKB shRNA |  | 5 µM |  | neurite process number | 3.3 |
| O=S(=O)(c1ccc(O)cc1)c1ccc(O)cc1 | HepG2 spheroids | Hoechst flow cytometry | 10 µM, 24 h |  | G2 phase cells | 18.6 ± 3.76% |
| CC(C)N1CCC(NC2CCN(c3cccc(-c4cc5cc(F)ccc5[nH]4)c3)CC2)CC1 | HT-29 |  |  |  | GI50 | 400 nM |
| COc1ccc2c(c1)[nH]c1c(C)nccc12 | DU-145 | bisulfite pyrosequencing, item: RASSF1A promoter CpG site 22 | concentration not given | reference: vehicle | methylation reduction | 0% |
| Cn1cc(Nc2nccc(-c3ccc4c(c3)CN(C3COC3)CC[C@H]4NC(=O)c3cn(C(C)(C)C)nn3)n2)cn1 | mouse splenic B cells | item: EGF signalling | 30 mg/kg, IgD-activated in vivo | reference: vehicle, direction not given | pathway activation z-score | 3.32 |
| N#Cc1nn(-c2c(Cl)cc(C(F)(F)F)cc2Cl)c(N)c1[S+]([O-])C(F)(F)F (stereo not shown) | hiPSC glutamatergic neurons | burst frequency, multi-electrode array | 2 h |  | lowest effective concentration | 1 µM |

| SMILES | cell line | assay | conditions | how to read | measurement | value |
| --- | --- | --- | --- | --- | --- | --- |
| COc1c(C)c2c(c(O)c1C/C=C(\C)CCC(=O)O)C(=O)OC2 | WSU-NHL | cell proliferation |  |  | IC50 | 74.1 nM |
| O=c1cc(-c2ccc(O)cc2)oc2cc(O)cc(O)c12 | SH-SY5Y Aβ-GFP cells, scrambled shRNA |  | 5 µM |  | neurite process number | 3.7 to 3.8 |
| Cn1nccc1Nc1nccc(-c2ccn([C@H](CO)c3ccc(Cl)c(F)c3)c(=O)c2)n1 | HCT116 | IncuCyte | concentration not given, 12 (unit not given) |  | PI-positive cells | 4.25 count and 2.83 count and 3.25 count |
| O=c1c(O)c(-c2ccc(O)c(O)c2)oc2cc(O)cc(O)c12 | SH-SY5Y Aβ-GFP cells, TRKB shRNA |  | 5 µM |  | neurite process number | 3.3 |
| Cc1ccc(S(=O)(=O)NCc2ccc(CNC(=O)c3ccc(F)cc3)cc2)cc1 | J774A.1, bacteria-infected | item: TNF-alpha | concentration not given |  | inhibition | 59% |
| CN1CCN(C2(CNC3CCN(c4cccc(-c5cc6cc(F)ccc6[nH]5)c4)CC3)CCC2)CC1 | SF-268 |  |  |  | CC50 | 6600 nM |
| COc1c(CCC[P+](c2ccccc2)(c2ccccc2)c2ccccc2)cc2c(c1OC)OCO2.[I-] | SF-539 | SRB |  |  | LC50 | > -4 log M |
| Cn1ncc(-c2nc(N[C@H]3CC[C@H](N)CC3)ncc2Cl)c1CC1CC1 | human AML cell lines | immunoblot, item: Ser2 and Ser5 | 100 nM, 24 h |  | RNA polymerase II CTD phosphorylation | decreased |
| Cn1cncc1C1=CN(c2ncnc3[nH]cnc23)CCS1 | RPMI-8226 |  | leukemia |  | CC50 | > 200000 nM |
| Oc1ccc(C2(c3ccc(O)cc3)c3ccccc3-c3ccccc32)cc1 | HepG2 spheroids | Hoechst flow cytometry | 0.1 µM, 24 h |  | G1 phase cells | 73.7 ± 4.76% |
| Cc1nn(-c2nc3ccc(Cl)c(Cl)c3[nH]2)c(O)c1C1OC(=O)c2ccccc21 (stereo not shown) | RAW-ISG | CCK-8 | 100 µM |  | viability | 24.9% and 21% and 19.6% and 22.2% and 19.8% |
| Cc1cc(C(C)(C)c2ccc(O)c(C)c2)ccc1O | HepG2 spheroids | planimetry | 10 µM, 0 to 24 h | reference: mean area of 72 h spheroids | spheroid area increase | 126% |
| C[C@]12CC[C@H](O)C[C@H]1CC[C@@H]1[C@@H]2CC[C@]2(C)[C@@H](c3ccc(=O)oc3)CC[C@]12O | MCF7 | RT-qPCR, item: AGR2 | 50 nM, 48 h, without estradiol, unit not given | reference: untreated | mRNA level | 0.179 and 0.206 and 0.201 |
| O=C1CCP(=S)(c2ccccc2)CC1 | SW480 | ELISA | concentration not given, at IC50 | reference: untreated | IL-6 reduction | 71.8% |
| CC(c1ccccc1)(c1ccc(O)cc1)c1ccc(O)cc1 | HepG2 spheroids | planimetry | 2.5 µM, 0 to 24 h | reference: mean area of 72 h spheroids | spheroid area increase | 128% |
| COc1cc(CCC[P+](c2ccccc2)(c2ccccc2)c2ccccc2)c(OC)c2c1OCO2.[I-] | HT-29 | SRB |  |  | LC50 | > -4 log M |
| Cc1c2ccncc2c(C)c2c1[nH]c1ccccc12 | KKU-M213 | SRB |  | reference: normal over KKU-M213 IC50 | selectivity index | 0.86 |

A few entries again:
| SMILES | cell line | assay | conditions | how to read | measurement | value |
| --- | --- | --- | --- | --- | --- | --- |
| Cc1cc(C(C)(C)c2ccc(O)c(C)c2)ccc1O | HepG2 spheroids | planimetry | 10 µM, 0 to 24 h | reference: mean area of 72 h spheroids | spheroid area increase | 126% |
| N#Cc1nn(-c2c(Cl)cc(C(F)(F)F)cc2Cl)c(N)c1[S+]([O-])C(F)(F)F (stereo not shown) | hiPSC glutamatergic neurons | burst frequency, multi-electrode array | 2 h |  | lowest effective concentration | 1 µM |
| COc1cc(CCC[P+](c2ccccc2)(c2ccccc2)c2ccccc2)c(OC)c2c1OCO2.[I-] | HT-29 | SRB |  |  | LC50 | > -4 log M |
